Measured values gathered from unrelated publications.
Each numbered part is a random draw from the data of one study; scales do not carry over between parts. Positions count from the first letter of the parent shown.

Block 1
Target: RING finger protein unkempt homolog, zinc fingers 1-6, GST-SBP tag (UNK, Homo sapiens, UniProt Q9C0B0, residues 30-357)
Sequence of UniProt Q9C0B0 (30-357, looked up): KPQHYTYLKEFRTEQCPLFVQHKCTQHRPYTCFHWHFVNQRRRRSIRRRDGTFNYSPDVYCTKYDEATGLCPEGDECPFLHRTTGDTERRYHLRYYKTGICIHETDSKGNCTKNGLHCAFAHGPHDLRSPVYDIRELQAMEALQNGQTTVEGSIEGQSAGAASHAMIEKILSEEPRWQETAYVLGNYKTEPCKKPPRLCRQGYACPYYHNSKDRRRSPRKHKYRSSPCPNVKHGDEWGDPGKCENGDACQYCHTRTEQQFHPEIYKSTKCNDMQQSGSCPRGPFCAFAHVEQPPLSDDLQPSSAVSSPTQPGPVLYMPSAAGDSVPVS
Technique: RNA Bind-n-Seq
Form: RNA
Medium: in vitro
Concentration: not given
Notes: RNA with constant flanks, ends assumed
Relative to: input RNA pool
Reading: higher = stronger binding
Quantity: bound/input enrichment
Shared flanks, not repeated: GGGAGUUCUACAGUCCGACGAUC … CAACAGAGGAUUGAGCAUCA
AACGAGGCUUCGAAAGCACACGUUAGAAGCAGAUGGAGAUGUGGCUGGGGCAUCAGGAGGACCCGAGAUGGUGGAUGUGAAAGGGAAGCCACCAUGUGGCUCUUGUCUUCAAUGGUAUCC: 0.154 ratio
UAAUUAUUCACCUUUAGCUUUUGUCUCUUGUGCAUGCUAUCACAGUUUUGCUUGUAUUUUCCGCAUAUGAACAUUUAUAAAGUCACUUUUUUUGUUACUGCAAUUUUGUCUGAUUUAUCC: 3.36 ratio
UGUAAAUUACCUUUACUGUGUGUACAUUUUUACUGUAUUUGAGACAUUUUUUUGUGUGUGACCCGUUAAUUUUGCAGGAUGUGCCAUAUCAAUUGAACGGAACUAAAGUCUGUGACAGUG: 0.212 ratio
GGACAGAACAGUAAACUAAGCAGACUGUGACCAUUGGCCUCCCACUAGCCAGGAUCAACUCCGCUCUCCUUUUGUGGUCCAUGUGCUGCAUCGUCUGCCAUCAGUGUGCAACCGGCCCCC: 1.77 ratio
CCAUAGUAUGUGACUCUACAUAACAUACUGAAACUAUUUAUAUUUUCUUUUUUAAGGAUAUUCCGAAAUUUUGUGUAUUAUAUGGAAAAAGAAAAAAAGCUUAAGUCUGUAGUCUUUAUG: 0.149 ratio
AUUGAUUUGCUUUACAAUCAUCCACACUGUGUUUUGUGGAUCUUUAAUUAUAUAUAACAACCGCCGUCAUUUUAAAUAUAUAUUCUGAAAUCUUUGCAAAUUUUAACAGAAGAGUCGAAG: 0.684 ratio
UAUGGCAUCUCCCUUGCUUGCUGCAGCAGGGAUGGAAGAAAUGUCACUUUCUUUUUAAGCCCGCAAGCUUUUUCUUUUUCUUUUUCUUCUUCUAUUUAAAAAUUCUAAUCAUGGAUGCUU: 4.76 ratio
UGGACAGAAAAAAUAAUGAAACAAACUGAAGUGUUAUUGCAGCCAAAUCCAAAUGCCAGGACCGAAGAAUUUGUUUAUGAGAAACUGGAUAGAAAAGCUCCAAGUCGUAUAAACAACCCA: 0.496 ratio
GUUGCCAUGUCGGGGAAGCUAGUCCCCGGCAGCCUGGAUGACUGCACAGCGGUGCCCUGGUACCGCAGAAAAGAGCAGUGAGCUGGAAGGUUAGAGACCGGGCCUCUUACCCUGGAACUC: 1.07 ratio
UUAUUUUUAAGAAGAUGCCAAUAUAAUUUUUGUAAGAAGGCAGUAACCUUUCAUCAUGAUCACCGGCAGUUGAAAAAUUUUUACACCUUUUUUUUCACAUUUUACAUAAAUAAUAAUGCU: 3.57 ratio
UCCAAUUCAAACUAUAGUACUGUGUAAUUAUGUAUAAAGGUUUUUUUAUUUAUUUGAAAUCCGGUCCGAUAUACAUUUUUAAAUUUAACAUCUGGCUGGACAGUGUUCUAUUAACUCAUU: 4.27 ratio

Block 2
Target: FOS, bZIP domain (human)
Technique: DHFR protein complementation
Medium: yeast
Notes: single substitutions, most at no-binding floor
Relative to: wild-type JUN-FOS pair
Reading: higher = stronger binding
Quantity: binding fitness
Parent: JUN, bZIP domain (human); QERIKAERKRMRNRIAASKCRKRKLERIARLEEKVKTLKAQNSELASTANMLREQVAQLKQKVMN; partner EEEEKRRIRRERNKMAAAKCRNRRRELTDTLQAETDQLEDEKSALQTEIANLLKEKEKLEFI
Q58P: -1.45 natural log
A40E: 0.0251 natural log
E54Y: -0.262 natural log
L52A: -1.24 natural log
K34I: -0.369 natural log
I28L: -0.0381 natural log
L31Q: -0.239 natural log
R30V: 0.199 natural log
E44N: -0.264 natural log
L52G: -1.22 natural log
E32Y: -0.329 natural log
A49F: -1.02 natural log

Block 3
Target: CCNB2, cyclin fold, Cln2 fusion (human)
Technique: yeast growth competition, sequencing
Medium: yeast
Notes: weak parent motif
Relative to: not given
Reading: higher = stronger binding
Quantity: normalised enrichment score
Parent: CDKN1A docking peptide (human); SKACRRLFGPVDS
SKACRPLFGPVDS [R6P]: -0.544
SKACRRLFGPFDS [V11F]: 0.0951
SKACRGLFGPVDS [R6G]: 0.215
SKACRWLFGPVDS [R6W]: 0.57
SKACRRLFGPVDA [S13A]: 0.489
SKACRFLFGPVDS [R6F]: 0.229
SKACRRLNGPVDS [F8N]: -0.185
SKACRRLFGSVDS [P10S]: 0.32
SVACRRLFGPVDS [K2V]: 0.844
SKACRRLFGCVDS [P10C]: 0.0808
SKACRRLGGPVDS [F8G]: 0.201

Block 4
Target: RNA binding protein fox-1 homolog 2, RRM domain, GST-SBP tag (RBFOX2, Homo sapiens, UniProt O43251-10, residues 100-194)
Technique: RNA Bind-n-Seq
Form: RNA
Medium: in vitro
Concentration: 365 nM
Notes: natural RNA segment, single round, ends assumed
Relative to: no-protein control
Reading: higher = stronger binding
Quantity: RBNS enrichment (R)
Shared flanks, not repeated: GGGAGUUCUACAGUCCGACGAUC … UGGAAUUCUCGGGUGCCAA
Target sequence (chain): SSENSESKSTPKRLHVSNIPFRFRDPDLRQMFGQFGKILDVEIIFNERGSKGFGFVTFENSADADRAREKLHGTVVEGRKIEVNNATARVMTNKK
UUUGUAUAUACGGUUACGUAUUAACUCUGGAAUCCUAUGGGCUCAUCUUGCUCACCCAAUGUGGGAGUCUGGUUUGAGCAAGCGAGCUGAAUGUGACUAUUAAAAAAAAU: 1.41
UUGACGUUGCCUUUUAAGCCUUUUACAUACACUGGUCAGUUCGGAAAAUUCUCAACAAUAAUGUUUGCCUUCUAGUUUAAGACAUGGUGUAUUUUAGAAAUUACCUGAAG: 0.66
CUGGCUCUUCGUCCCCAGUCUCCCAGUGGGGGGGCCCUGGGGAGAUUCCAGGGGUGUGAUUGAAUAUUUAUCUCUUGCUCUUGUAUGUUUGUUGGGGAGAAGAAGCACUU: 26.2
AGGGGCCAUAUCAUUCAUGGCCAAAAAAAACCAAAAAGCAAAAAACAAAAACAAGUCCCAUGUCCUACUGACUCUAGUUCUUCCAGUCGUUAUCCUCUGCUGUCUCUCUG: 0.541
AAGUUUGAGAUAAGUCUUUUUUUGAAUUUUUUUUUCUCUGAUCUGCUUAAAAUGCAGAUUGGCUUUAAAAAGAAAAGAAAACAAACACACAUAUGCAAUGUUUUAAGGUC: 0.346
AUGAUUUGUAACAUUCACACAACACCUCACUUUUGAAUCUAUAAAAGAAUUGCACGUAUGAGAAACCUAUAUUUCAAUACUGCUGAAACAGACAUGAAAUAAAGAAUUUA: 8.44
GAUCUUUGCCCAUGGAAGUCUCAAAGAUCUUUCGUUGGUUGUUUCUCUGAGCUUUGUUACUGAAAUGAGCCUCGUGGGGAGCAUCAGAGAAGGCCAGGAAGAAUGGUGUG: 4.62
AUGCUGUUUGGGGCCCUCCCCCCAAGACUUCUCUCACUUGUUGAGUCUGUGUGCUCUCGCAAUGUUCCUGUCUAAUUCUUGACUGAUUCUGGGUCUGUCCUGACCUCUAG: 0.407
CAUUGAAAGUAGUGCUGUAAAUAUUCUGCCAUAGGAAUACUGUCUACAUGCUUUCUCAUUCAAGAAUUCGUCAUCACGCAUCACAGGCCGCGUCUUUGACGGUGGGUGUC: 0.234
CACUUUGUUAGAUGUAAAAUAAACCACGGGCCUUCCACAUGGGGUGACCCCCGCCCUGUCCCUUUCAGUUUUGUCUGGGAGGGAGCACUAAAGCCUUUCCAGAGACUAUG: 0.24
AGACUCCUUGGAUAUUUCCCAAGAACCCCCCACAUACACCCCUCACAAGCCACCCCUCCUGAGAGGCAGGGGGCCCUCCGCCCCCUCCCCAUGUAUUCCCCACCUGUGUU: 0.511
CCUUUUGCAGUUGCGUCUGGGAAGGGGCCCCGGACUCCCUCGAGAGAAUGUGCUAGAGACAGCCCCUGUCUUCUUGGCGUGGUUUAUAUGUCCGGGAUCUGGAUCAGAUU: 3.35

Block 5
Target: CDC34 UBC core domain (UniProt P49427)
Technique: yeast two-hybrid
Medium: yeast
Notes: mostly zero background
Relative to: not given
Reading: higher = stronger interaction
Quantity: lacZ reporter activity
B1: RFWD3 RING domain (UniProt Q6PCD5); chain ASMDEEEGDTCTICLEQWTNAGDHRLSALRCGHLFGYRCISTWLKGQVRKCPQCNKKARHSDIVV
B2: RNF121 RING domain (UniProt Q9H920); chain MPTKHLSDSVCAVCGQQIFVDVSEEGIIENTYRLSCNHVFHEFCIRGWCIVGKKQTCPYCKEKVDLKRMFS
B3: SH3RF1 RING domain (UniProt Q7Z6J0); chain DESALLDLLECPVCLERLDASAKVLPCQHTFCKRCLLGIVGSRNELRCPECRTLVGSGVEEL
B4: RNF19A RING domain (UniProt Q9NV58); chain ISKQIGDFIECPLCLLRHSKDRFPDIMTCHHRSCVDCLRQYLRIEISESRVNISCPECTERFNPHDIR
B5: DTX2 RING domain (UniProt Q86UW9); chain EELKVPPDEDCIICMEKLSTASGYSDVTDSKAIGSLAVGHLTKCSHAFHLLCLLAMYCNGNKDGSLQCPSCKTIYGEKTGTQ
Construct (chain): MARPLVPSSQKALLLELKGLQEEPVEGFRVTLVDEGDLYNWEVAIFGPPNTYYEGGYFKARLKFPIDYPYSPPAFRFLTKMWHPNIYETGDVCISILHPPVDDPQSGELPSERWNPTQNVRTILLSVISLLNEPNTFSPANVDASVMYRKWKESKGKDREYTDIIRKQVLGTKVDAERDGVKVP
B1 (RFWD3 RING domain): 0
B2 (RNF121 RING domain): 0
KETIKKTTKPCPRCHVPVEKNGGCMHMKCPQPQCRLEWCWNCGCEWNRVCMG (PRKN RING domain (UniProt O60260)): 0
B3 (SH3RF1 RING domain): 0
AVPSGLEENLCKICMDSPIDCVLLECGHMVTCTKCGKRMNECPICRQYVIRAVHVF (RFFL RING domain (UniProt Q8WZ73)): 0
B4 (RNF19A RING domain): 0
GSRLQEINDVCAICYHEFTTSARITPCNHYFHALCLRKWLYIQDTCPMCHQKVYIEDDIK (RNF139 RING domain (UniProt Q8WU17)): 0
NLSELTPYILCSICKGYLIDATTITECLHTFCKSCIVRHFYYSNRCPKCNIVVHQTQPLY (PCGF6 RING domain (UniProt Q9BYE7)): 0
PEDRESLKSACVVCLSSFKSCVFLECGHVCSCTECYRALPEPKKCPICRQAITRVIPLY (MUL1 RING domain (UniProt Q969V5)): 0
B5 (DTX2 RING domain): 0
KLRKLKEAMLCMVCCEEEINSTFCPCGHTVCCESCAAQLQSCPVCRSRVEHVQHVY (MYLIP RING domain (UniProt Q8WY64)): 0

For quick reference, copied from above (block 2):
A40E: 0.0251 natural log
E54Y: -0.262 natural log
L52A: -1.24 natural log
K34I: -0.369 natural log
I28L: -0.0381 natural log
L31Q: -0.239 natural log
R30V: 0.199 natural log
E44N: -0.264 natural log
